Experimental data of several laboratories.
Lines come from different studies, so protocols differ. Values joined by “and” are separate records of one study, mostly repeats; a detail may differ. ± gives the spread as reported.
USP14: Ubiquitin carboxyl-terminal hydrolase 14 (USP14, Homo sapiens, UniProt P54578)
T1: DNA hairpin, hairpin; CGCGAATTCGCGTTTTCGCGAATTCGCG

For O=C1NC(=O)C(CCCO)C(=O)C1=NNc1c(Cl)cccc1Cl (centres unmarked), the inhibition was 28% (USP14; enzyme activity, inhibitor; 17 µM).
For C=CC(=O)N1C[C@H](C)N(c2nc(OC[C@@]34CCCN3C[C@H](F)C4)nc3c(F)c(-c4ccc(F)c5sc(N)c(C#N)c45)c(C(F)(F)F)cc23)C[C@H]1C, “melting temperature shift” read 0.3 ± 0.15 °C (GTPase KRas, GppNHp-bound (KRAS, Homo sapiens, UniProt P01116, C118S/C51S/C80L); thermal shift; 100 µM, together with: KRAS-GppNHp, cysteine-light; reference: DMSO).
Under “relative surface expression”, CC[C@@H](C)[C@@H](NC(=O)[C@@H](Cc1ccc(O)cc1)NC(=O)[C@H]1CCCN1C(=O)[C@@H](CCCNC(=N)N)NC(=O)[C@H](N)Cc1c[nH]cn1)C(=O)N[C@H](C)C(=O)N[C@H](Cc1c[nH]cn1)C(=O)N[C@H](CCCNC(=N)N)C(=O)N[C@@H](C(=O)N[C@H](Cc1ccc(O)cc1)C(=O)N[C@H](CO)C(=O)N[C@H](Cc1ccccc1)C(=O)NCC(=O)NCC(=O)NCC(=O)N[C@@H](CCCCNC(=O)CCCC[C@@H]1SC[C@@H]2NC(=O)N[C@@H]21)C(N)=O)C(C)C is recorded as 1 and 1.1 and 1.09 (Cd274 (Mus musculus, UniProt Q9EP73); flow cytometry, measured: Cd274; concentration not given, 24 h; reference: 0 h).
Oc1cc(O)c2cc(O[C@@H]3OC[C@H](O)[C@H](O)[C@H]3O)c(-c3ccc(O)c(O)c3)[o+]c2c1 gave a binding enthalpy of -18.7 ± 0.0574 kcal/mol (PPO3 (Agaricus bisporus, UniProt C7FF04); fluorescence quenching; concentration not given).
For CCCCCC(O)/C=C/C=O (centres unmarked), “isoTOP-ABPP competition ratio” read 0.9 (3-ketoacyl-CoA thiolase, mitochondrial (Homo sapiens, UniProt P42765); competitive isoTOP-ABPP, measured: ACAA2 cysteine peptide; Ramos soluble proteome; 100 µM, together with: iodoacetamide probe; reference: DMSO over compound-treated, higher = stronger cysteine blockade).
The remaining activity of CC(C)[C@@H]1NC(=O)[C@H](Cc2ccccc2)NC(=O)CSC[C@@H](C(N)=O)NC(=O)[C@H](CCC(=O)O)NC(=O)[C@H](CO)NC(=O)[C@H](Cc2c[nH]c3cccc(Cl)c23)NC(=O)[C@H](C2CCCCC2)NC(=O)[C@H](C(C)C)NC(=O)[C@H](Cc2ccc(O)cc2)NC(=O)[C@H](CC(=O)O)NC(=O)[C@H](Cc2c[nH]c3ccccc23)NC(=O)[C@H](Cc2ccc(N)nc2)NC(=O)[C@H](Cc2c[nH]c3ccc(Cl)cc23)NC(=O)[C@H](CCC(=O)O)NC1=O is reported as 83.2% (Interleukin-1 receptor-like 2 (IL1RL2, Homo sapiens, UniProt Q9HB29); reporter gene (SEAP), inhibitor, HEK-Blue IL-36R reporter; HEK-Blue IL-36R cells; 33.33 µM, 6 h, together with: IL-36β 100 ng/mL).
With O=C(N1CCCC1)n1cc(-c2ccc(-c3ccccc3)cc2)nn1 the activity ratio was 1.27 (Prolyl endopeptidase (Mus musculus, UniProt Q9QUR6); enzyme activity, inhibitor, competitive ABPP-SILAC, measured: Prep; mouse T-cells; concentration not given, 4 h, treated in situ; reference: DMSO).
CN1CCN(c2ccc3nc(-c4ccc5nc(-c6ccc(OCCCCNC(=O)c7cccc8c7C(=O)OC87c8ccc(N(C)C)cc8[Si](C)(C)c8cc(N(C)C)ccc87)cc6)[nH]c5c4)[nH]c3c2)CC1 gave a Kd of 5.2 µM (T1, DNA hairpin, hairpin; fluorescence titration; 1 h, apparent, single-site fit, together with: probe 3 nM).
For Nc1nnc2c(n1)-c1ccccc1C2=O, the inhibition was 60% (USP14; enzyme activity, inhibitor; 17 µM).
With CCCCCCCCCCCCCCCC(=O)OCC(CSC[C@H](N)C(=O)N[C@@H](CO)C(=O)N[C@@H](CCCCN)C(=O)N[C@@H](CCCCN)C(=O)N[C@@H](CCCCN)C(=O)N[C@@H](CCCCN)C(=O)NCCCCCC(=O)N[C@@H](CCCCN)C(=O)N[C@@H](CC(C)C)C(=O)N[C@H](C(=O)N[C@@H](Cc1ccccc1)C(=O)N[C@@H](Cc1ccccc1)C(=O)N[C@@H](Cc1ccc2ccccc2c1)C(=O)O)C(C)C)OC(=O)CCCCCCCCCCCCCCC (some centres unmarked) the fibril diameter was 44.8 nm (Amyloid-beta precursor protein, fibrillar amyloid-beta (APP, Homo sapiens, UniProt P05067); TEM; 2.0 eq, 3 h, fibril 2, together with: APP 20 µM).
N[C@@H](CCC(=O)N[C@@H](CS[Se]Cc1ccc(-c2cccc(C(O)c3ccc(Cl)c(Cl)c3)c2)cc1)C(=O)NCC(=O)O)C(=O)O (some centres unmarked) has a kinact/KI of 1.21e+06 M⁻¹ s⁻¹ (PTPN5 (Homo sapiens, UniProt P54829); enzyme activity, inhibitor).

For quick reference, copied from above:
The remaining activity of CC(C)[C@@H]1NC(=O)[C@H](Cc2ccccc2)NC(=O)CSC[C@@H](C(N)=O)NC(=O)[C@H](CCC(=O)O)NC(=O)[C@H](CO)NC(=O)[C@H](Cc2c[nH]c3cccc(Cl)c23)NC(=O)[C@H](C2CCCCC2)NC(=O)[C@H](C(C)C)NC(=O)[C@H](Cc2ccc(O)cc2)NC(=O)[C@H](CC(=O)O)NC(=O)[C@H](Cc2c[nH]c3ccccc23)NC(=O)[C@H](Cc2ccc(N)nc2)NC(=O)[C@H](Cc2c[nH]c3ccc(Cl)cc23)NC(=O)[C@H](CCC(=O)O)NC1=O is reported as 83.2% (Interleukin-1 receptor-like 2 (IL1RL2, Homo sapiens, UniProt Q9HB29); reporter gene (SEAP), inhibitor, HEK-Blue IL-36R reporter; HEK-Blue IL-36R cells; 33.33 µM, 6 h, together with: IL-36β 100 ng/mL).
N[C@@H](CCC(=O)N[C@@H](CS[Se]Cc1ccc(-c2cccc(C(O)c3ccc(Cl)c(Cl)c3)c2)cc1)C(=O)NCC(=O)O)C(=O)O (some centres unmarked) has a kinact/KI of 1.21e+06 M⁻¹ s⁻¹ (PTPN5 (Homo sapiens, UniProt P54829); enzyme activity, inhibitor).
